Published values of several laboratories.
Protocols differ between the studies behind these lines. Several values in a cell are separate wells, animals, samples, runs or records.
MAPK3: Mitogen-activated protein kinase 3 (MAPK3, Homo sapiens, UniProt P27361)
UniProt P27361, sequence (whole entry, looked up): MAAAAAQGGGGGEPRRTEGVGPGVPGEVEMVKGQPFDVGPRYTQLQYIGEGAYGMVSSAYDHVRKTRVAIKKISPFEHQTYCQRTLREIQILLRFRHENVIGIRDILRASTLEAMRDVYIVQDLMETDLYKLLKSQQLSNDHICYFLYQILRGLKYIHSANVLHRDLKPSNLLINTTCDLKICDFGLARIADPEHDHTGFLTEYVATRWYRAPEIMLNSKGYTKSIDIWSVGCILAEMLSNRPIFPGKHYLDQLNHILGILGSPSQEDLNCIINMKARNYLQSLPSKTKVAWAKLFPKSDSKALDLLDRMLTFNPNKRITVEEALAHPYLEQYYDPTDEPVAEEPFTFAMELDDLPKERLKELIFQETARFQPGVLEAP
MAPK3 with MyD88: Mitogen-activated protein kinase 3, with MyD88 (MAPK3, Homo sapiens, UniProt P27361)

| SMILES | target | test | system | setting | scale | measurement | result |
| --- | --- | --- | --- | --- | --- | --- | --- |
| C=C1CCCCCCCCCC(CO)C1=O (centres unmarked) | MAPK3 | cell-free assay, competition with immobilised ligand |  | 10 µM |  | remaining binding | 100% |
| Nc1nc(Nc2ccccc2)sc1C(=O)c1ccccc1 | MAPK3 | enzyme activity, inhibitor |  | 10 µM |  | remaining activity | 59% |
| C=CC(=O)Nc1cc(-c2nn(C3CCN(CCNC(=O)[C@H](C)CCC45CC6CC(CC(C6)C4)C5)CC3)c3ncnc(N)c23)ccc1Oc1ccccc1 | MAPK3 | inhibitor, KiNativ profiling | biochemical | 2 µM |  | inhibition | 2.1% |
| CNC(=O)C1CCN(c2cc(C)c(F)cc2NC(=O)c2ccc(-c3cc(O)ccc3C)c(C)c2)CC1 | MAPK3 | binding, competition with immobilised ligand |  | 1 µM |  | remaining binding | 98% |
| CN1CCN(Cc2ccc(NC(=O)c3cccc(C#Cc4cnc(N)c5ncccc45)c3)cc2C(F)(F)F)CC1 | MAPK3 | cell-free assay, competition with immobilised ligand |  | 50 nM |  | remaining binding | 92% |
| C[C@H]1CN(C(=O)c2cn(-c3ccnc(N)n3)c3cc(C#CC4(O)CCCCC4)ccc23)CCN1 | MAPK3 | enzyme activity, inhibitor, FRET |  | 1 µM |  | inhibition | 4% |
| Cc1cccc(-c2ccc3nc(NC(=O)C4CCCCC4)nn3c2)c1 | MAPK3 | enzyme activity, Dundee kinase panel |  | 10 µM |  | remaining activity | 96% |
| C=CC(=O)Nc1cccc(-c2cnc3[nH]cc(C(=O)NC(C)(C)C)c3n2)c1 | MAPK3 | kinase activity |  | 0.1 µM |  | inhibition | 3% and 1% |
| CC(C)=CC1OC(C)(C)C2C=C3C(=O)C(Cl)=CC(O)C3C3C(O)C4OC4C(=O)C132 (centres unmarked) | MAPK3 | cell-free assay, competition with immobilised ligand |  | 10 µM |  | remaining binding | 90% |
| NC(=O)C[C@H]1CCc2sc3ncnc(O[C@H]4CC[C@H](N5CCOCC5)CC4)c3c21 | MAPK3 | enzyme activity, inhibitor |  | 10 µM |  | inhibition | 4% |
| CNc1ccc(-c2nc3cc(C(=O)Nc4ccc(OC)nc4)ccc3[nH]2)cc1 | MAPK3 with MyD88 | ERK1-MYD88 interaction, HTRF |  | concentration not given |  | inhibition | 26.7% |
| Cc1cnc2nc1Nc1cccc(c1)COC/C=C/COCc1cc(ccc1OCCN1CCOCC1)N2 | MAPK3 | binding, competition with immobilised ligand |  | 0.1 µM |  | remaining binding | 93% |
| Cc1cccc(O[C@H]2CCC[C@@H](C(C)CNCc3ccncc3)C2)c1 (relative stereo) | MAPK3 | enzyme activity, inhibitor |  | 10 µM |  | inhibition | -9% |
| COc1ccc(NC(=O)Nc2ccc3c(c2)C(=O)N(C(C)CO)CC(C)C(CN(C)Cc2ccc4c(c2)OCO4)O3)cc1 (centres unmarked) | MAPK3 | binding, competition with immobilised ligand |  | 10 µM |  | remaining binding | 92% |
| CN(C)c1ccc(-c2nc3cc(C(=O)Nc4ccc(Cl)cc4)ccc3[nH]2)cc1 | MAPK3 with MyD88 | ERK1-MYD88 interaction, HTRF |  | concentration not given |  | inhibition | 81% |
| Cc1ccc(C)c(-c2ccc3nc(NC(=O)C4CCCCC4)nn3c2)c1 | MAPK3 | enzyme activity, Dundee kinase panel |  | 10 µM |  | remaining activity | 92% |
| CNC1C[S+]2CC[S+]3CC[S+](C1)[Ru-4]321([N]=C=S)[n]2c3ccc(OC)cc3c3c4c(c5cc(F)c[n+]1c5c32)C(=O)NC4=O (centres unmarked) | MAPK3 | KinomeScan |  | 0.1 µM | baseline: untreated | remaining binding | 100% |
| Nc1ncc(-c2cc(-c3cnn(CC(F)(F)F)c3)ncc2F)nc1C(=O)NC1CNCC(F)C1 (centres unmarked) | MAPK3 | enzyme activity |  | 1 µM | baseline: DMSO control | remaining activity | 98.8% |
| C=CC(=O)N1CCCC(n2c(=O)c3ncccc3n(Cc3ccc(Oc4ccccc4)cc3)c2=O)C1 (centres unmarked) | MAPK3 | cell-free assay, competition with immobilised ligand |  | 1 µM |  | remaining binding | 87% |
| CNS(=O)(=O)Nc1nccc(Cc2c(C)c3ccc(Oc4ncccc4F)cc3oc2=O)c1F | MAPK3 | binding, competition with immobilised ligand |  | 10 µM |  | remaining binding | 83% |

A few entries again:
| SMILES | target | test | system | setting | scale | measurement | result |
| --- | --- | --- | --- | --- | --- | --- | --- |
| CNc1ccc(-c2nc3cc(C(=O)Nc4ccc(OC)nc4)ccc3[nH]2)cc1 | MAPK3 with MyD88 | ERK1-MYD88 interaction, HTRF |  | concentration not given |  | inhibition | 26.7% |
